Assay results gathered from unrelated publications.
Numbered parts are unrelated; each lists some results of a single study.

Block 1
Target: RING finger protein unkempt homolog, zinc fingers 1-6, GST-SBP tag (UNK, Homo sapiens, UniProt Q9C0B0, residues 30-357)
Chain of UniProt Q9C0B0 (30-357, looked up): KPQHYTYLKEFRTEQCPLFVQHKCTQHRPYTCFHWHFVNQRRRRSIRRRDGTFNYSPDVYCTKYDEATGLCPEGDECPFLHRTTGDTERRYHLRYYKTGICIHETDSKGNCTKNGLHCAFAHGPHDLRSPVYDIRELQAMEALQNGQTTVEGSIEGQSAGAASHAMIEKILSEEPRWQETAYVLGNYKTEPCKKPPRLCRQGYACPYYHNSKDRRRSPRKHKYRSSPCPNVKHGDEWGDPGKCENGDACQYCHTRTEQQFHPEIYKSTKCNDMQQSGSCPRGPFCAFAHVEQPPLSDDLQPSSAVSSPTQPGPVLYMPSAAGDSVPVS
Method: RNA Bind-n-Seq
Molecule type: RNA
Sample: in vitro
Tested at: not given
Setting: RNA with constant flanks, human and mouse sites, ends assumed
Relative to: input RNA pool
Direction: higher = stronger binding
Shared flanks, not repeated: GGGAGUUCUACAGUCCGACGAUC … CAACAGAGGAUUGAGCAUCA
Strand | bound/input enrichment [ratio]
ACGCCCGCCCGAGAACUCUGCAGAAUGUGGAACCCUUGAGUUCAUACAGCACCUCCAUACUGUUCCCUCUCUCUCUCUCUUCCUCUGUAGCCAGCAGGCUGCCAUCCUGCACAGGGCCAG | 0.192
AAUGUCAUUGAUGCCAAUUUCUGUAUGAAAGGAGAAGACUUGGACUCUCAGGUUGGAGUUAUAGAUUUUUCAAUGUAUCUCAAGGACGGGAACAGCAGUAAAGGUACUGAAGGAGACGGU | 0.495
UAACGUUACAUAUCAUAGUGAAUGGUUUCCCCAGUGUAUAUGAAUGUUUUAAGUGUUUCCAAUAGCUUAUGAAAUUUAGGAGCUUUCUAAUACUCGUUUUAUAAAUUUAAUCAUUUGCUA | 3.34
GCAUUUAAUCUGGCAGAACAGCACCUCGGCCUCACUAAACUGUUGGACCCCGAAGACAUCAGCGUGGACCAUCCUGAUGAGAAGUCCAUAAUCACUUAUGUGGUGACUUAUUACCACUAC | 0.186
UUUAGACAAAGAGAAGGGCCUUUUUAUCCAACCCUAAGAUUACUUCACAAAUAUCCUUUUAUCCUGCCACACCAGCAGGUUGAUAAAGGAGCCAUCAAAUUUGUACUCAGUGGAGCAAAU | 0.264
AGUUUGGGCUUUGGCUCUUACAUCAGUGAAGUAAAAGAAGUCUUACAAGAAUGCAAGACAGUAGCAUUAAAAAGAAGAAAGGCCAGUUCUCGUUUGGAAAACCUCGGCAUUCCUGAAGAG | 0.718

Block 2
Target: Sal-like protein 4, full length isoform A (SALL4, Homo sapiens, UniProt Q9UJQ4, residues 1-1053)
Chain of UniProt Q9UJQ4 (whole entry, looked up): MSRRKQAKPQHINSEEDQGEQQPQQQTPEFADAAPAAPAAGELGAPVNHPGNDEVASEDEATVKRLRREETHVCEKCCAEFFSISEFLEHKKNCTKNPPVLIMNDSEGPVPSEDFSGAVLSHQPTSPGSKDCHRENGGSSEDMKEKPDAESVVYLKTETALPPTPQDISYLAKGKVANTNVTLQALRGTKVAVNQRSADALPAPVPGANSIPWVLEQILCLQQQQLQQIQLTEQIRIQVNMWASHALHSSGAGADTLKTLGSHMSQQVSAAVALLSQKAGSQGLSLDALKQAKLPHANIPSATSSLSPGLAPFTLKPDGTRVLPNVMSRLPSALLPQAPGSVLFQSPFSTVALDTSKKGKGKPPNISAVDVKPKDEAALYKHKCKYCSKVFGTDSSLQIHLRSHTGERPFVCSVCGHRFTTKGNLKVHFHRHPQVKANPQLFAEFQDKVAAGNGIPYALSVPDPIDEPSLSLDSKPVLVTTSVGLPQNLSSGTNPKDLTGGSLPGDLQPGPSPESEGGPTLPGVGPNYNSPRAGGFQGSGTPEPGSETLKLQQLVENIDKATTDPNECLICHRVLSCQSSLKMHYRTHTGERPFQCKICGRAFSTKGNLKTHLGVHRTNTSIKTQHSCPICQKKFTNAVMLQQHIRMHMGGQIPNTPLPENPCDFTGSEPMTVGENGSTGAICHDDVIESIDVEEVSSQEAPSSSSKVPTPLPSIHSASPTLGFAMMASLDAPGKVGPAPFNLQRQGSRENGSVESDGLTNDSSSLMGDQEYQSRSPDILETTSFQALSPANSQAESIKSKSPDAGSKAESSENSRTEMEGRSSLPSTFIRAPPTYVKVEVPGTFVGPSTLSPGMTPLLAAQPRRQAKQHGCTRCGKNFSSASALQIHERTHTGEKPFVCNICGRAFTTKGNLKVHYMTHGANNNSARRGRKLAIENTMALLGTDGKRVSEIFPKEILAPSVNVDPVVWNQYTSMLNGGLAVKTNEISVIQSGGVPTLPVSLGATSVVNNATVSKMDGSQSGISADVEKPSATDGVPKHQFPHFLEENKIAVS
Method: universal PBM
Molecule type: double-stranded DNA, one strand shown
Sample: in vitro
Tested at: 600 nM
Setting: 8-mer, flanks averaged, mean of replicates
Direction: higher = stronger binding
Strand | E-score
GGGACCAA | -0.273
CTGTTGCA | -0.0733
CAGCCATC | -0.221
GGGTGGAC | -0.404
AGTACTCG | 0.0498
AAAGCGTT | 0.0743
CTGAACGA | -0.0566
GCCGAACA | -0.0914
CCGCAAGC | -0.241

Block 3
Target: Interferon regulatory factor 7, full length, phosphomimetic (IRF7, Homo sapiens, UniProt Q92985, residues 1-503, S101K/S471D/S472D/S475D/S476D/S477D/S483D/S484D/S487D)
Chain of UniProt Q92985 (whole entry, unmodified, looked up): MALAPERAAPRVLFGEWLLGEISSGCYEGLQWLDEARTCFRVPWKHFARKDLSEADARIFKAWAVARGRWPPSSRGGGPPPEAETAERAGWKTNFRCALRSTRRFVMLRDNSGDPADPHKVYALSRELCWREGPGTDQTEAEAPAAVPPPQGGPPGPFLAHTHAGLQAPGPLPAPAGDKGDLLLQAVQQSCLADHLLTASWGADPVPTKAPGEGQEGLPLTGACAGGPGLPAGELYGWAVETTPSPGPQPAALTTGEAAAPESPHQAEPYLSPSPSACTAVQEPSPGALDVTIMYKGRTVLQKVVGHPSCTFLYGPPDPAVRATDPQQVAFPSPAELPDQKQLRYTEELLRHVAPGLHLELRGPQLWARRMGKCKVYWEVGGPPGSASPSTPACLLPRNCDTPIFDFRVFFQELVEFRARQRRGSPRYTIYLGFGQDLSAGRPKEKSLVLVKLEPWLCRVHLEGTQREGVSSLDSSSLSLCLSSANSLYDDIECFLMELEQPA
Method: protein-binding microarray
Molecule type: double-stranded DNA, one strand shown
Sample: in vitro
Tested at: 250 nM
Setting: 60-bp whole probe
Added: salmon DNA 0.4 mg/ml
Relative to: random background probes
Direction: higher = stronger binding
Shared flanks, not repeated: GCCTAGCAC … GTGCTAGGTCTTGATTCGCTTGACGCTGCTG
Strand | log fluorescence
TTAGATATCAGTCTCGTTTA | 2.46 z-score
TCATGTCCCTGTTTCTAACT | 2.14 z-score
TTCTCTTTCACTACTCCATT | 1.54 z-score
TTAGAACTGAGTATCGATTG | 0.859 z-score
GACGGTTTCGTTTTCGGGAC | 13.4 z-score
CACGGTCTCGGACTGGGGAC | 0.276 z-score
TCACTTTTCGCTTTCTTACT | 4.97 z-score
CATTGCCTGTTTTTCCCCTG | 0.697 z-score

Further values, each from its own experiment
Substance | target | test | test system | conditions | how to read | measurement | value
PhoQ, residues 284 288 289 292 302 303 ALAMYF | PhoP, residues 12 14 15 18 19 GHCSL (Escherichia coli, UniProt P23836) | Sort-seq, measured: YFP reporter | E. coli | PhoQ-PhoP variant library, added: 10 µM Mg2+ | relative to: high Mg2+ state, higher = stronger signaling | fold induction | 18.6

Repeated from above (block 2):
Strand | E-score
GCCGAACA | -0.0914
CCGCAAGC | -0.241
